Assay results of several laboratories.
Numbered parts are unrelated; each lists some results of a single study.

Series 1
Target: RING finger protein unkempt homolog, zinc fingers 1-6, GST-SBP tag (UNK, Homo sapiens, UniProt Q9C0B0, residues 30-357)
Chain of UniProt Q9C0B0 (30-357, looked up): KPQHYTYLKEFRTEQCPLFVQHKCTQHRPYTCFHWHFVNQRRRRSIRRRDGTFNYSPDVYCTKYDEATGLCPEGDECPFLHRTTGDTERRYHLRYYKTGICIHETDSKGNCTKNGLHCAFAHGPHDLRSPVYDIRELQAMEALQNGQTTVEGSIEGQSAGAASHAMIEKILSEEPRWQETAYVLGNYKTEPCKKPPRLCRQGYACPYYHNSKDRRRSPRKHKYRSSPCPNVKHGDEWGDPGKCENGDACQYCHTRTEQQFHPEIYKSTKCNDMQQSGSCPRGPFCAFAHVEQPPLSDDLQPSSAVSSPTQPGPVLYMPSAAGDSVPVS
Technique: RNA Bind-n-Seq
Molecule type: RNA
Sample: in vitro
Tested at: not given
Setting: RNA with constant flanks, human-mouse chimeric sites, ends assumed
Reference: input RNA pool
Reading: higher = stronger binding
Quantity: bound/input enrichment
All sequences stand within: GGGAGUUCUACAGUCCGACGAUC … CAACAGAGGAUUGAGCAUCA
UUCAAAGAAAAGGGCAGCUGUGUCAUUUCAUAAGUAACUCUGGGGGAGGGAAAUUCUAACUAGUUUGUUAAUUUUCCCCCAAAUGAAGCCAAAGUGUUUUUUAAGGAACUGAGAAAAAAU: 0.302 ratio
GAAACAUUUAAAUUUAAAGAAGCUGUUGUUCUAGGAAGUACGGACUUUCUAGAAGAUGAUAUAGAAAAAAUUGUAGAAGAACUGGGGAAAGAAUACAAGGGCAACGCCUACCAUCUGAUG: 1.39 ratio
UUACCCGAGAACGAGGAUGAAUUGGAGAGCACCAACAGGCGCUACACCAAGAGGGACUGCAGCACUUUCCUCAGAACUAGUGAGACGGGCAUCGUGGACCAGGUCAUGGUCACUCUCAAC: 0.171 ratio
GGCUGCUGGUGACUGUCGGGAGCCGUCUGGAGUUCCCGCCGGAGCGCGGCCAGACUAAUUUUAGAAAAUGCCAAGUAGGAAAUUUGCUGAGGGUGAAGUGGUCAGAGGCCGAUGGCCUGG: 1.99 ratio
CGGAGCCCCUCCCUCUCACAGGCCCAAGAUAUAACCCACCAGUGCCUUCUGUCUGCUUGUCAGCUCUGUCAAUCACGCCUGUCCUCUCACGCCCACACCAAGUGCCCAAAGUGGGGAGGG: 0.429 ratio
AAUGUUCUUAAUAUUUUUGAAUAAAUGAAGCUAAAAUGUCUGCUUUUGGUACUACAUGCAUUAAUAAAAGGUUAAGUUUUGUUUUCCACUGAAGUACUAUUUAACAUCUCAGAAAAAAAC: 0.204 ratio
CUCAGAGAUGUGGCAUAUCAGUAUGUGAAAAAGGGGGCUCGUAUAUUUUUGGAAGGGAAAGUGGACUAUGGCGAGUACAUGGAUAAAAACAAUGUGAGGCGGCAAGCAACAACAAUCAUA: 0.362 ratio
UUACCCGAAAAUGAAGAUGAGCUGGAGAGCACCAACAGGCGCUACACCAAGAGGGACUGUAGCACUUUCCUCAGAACUAGUGAGACGGGCAUCGUGGACCAGGUCAUGGUCACUCUCAAC: 0.294 ratio
GUCAACAGCUGCCUCAAUCCCAUUCUCUACGCCUUCCUGGAUGAGAACUUCAAGGCCUGCUUCCGCAAGUUCUGCUGUGCUUCUGCCCUGCGCCGGGACGUGCAGGUGUCUGACCGCGUG: 0.426 ratio
CUCAGAGAUGUGGCAUAUCAGUAUGUGAAAAAGGGGUCUCGAAUUUAUGUGGAAGGGAAAGUGGACUAUGGCGAGUACAUGGAUAAAAACAAUGUGAGGCGGCAAGCAACAACAAUCAUA: 0.387 ratio
UCUUUAAAAAAAAAAUUACCUUUUCUGACAGUGCUUUCCCUCCCAUAGAUCCACGUUCAAGCUCAAAGGCCAAAACUUUUGCACGGAGCUCAAACAUAAAAGAAAGAAAGAUUUCUGAGA: 0.503 ratio

Series 2
Target: Interferon regulatory factor 5, full length, phosphomimetic (IRF5, Homo sapiens, UniProt Q13568-2, residues 1-514, K96S/S451D/S453D/S456D/S462D)
Technique: protein-binding microarray
Molecule type: double-stranded DNA, one strand shown
Sample: in vitro
Tested at: 250 nM
Setting: 60-bp whole probe
With: salmon DNA 0.4 mg/ml
Reference: random background probes
Reading: higher = stronger binding
Quantity: log fluorescence
All sequences stand within: GCCTAGCAC … GTCTTGATTCGCTTGACGCTGCTG
GACGAACTGAGACTGGAGACGTGCTAG: -0.21 z-score
TTAGGACTGATTTTCCTTTAGTGCTAG: 0.493 z-score
TTAGGTTTCGGACTGGGTTGGTGCTAG: 5.18 z-score
TTAGGTATCGGTATCGGTTTGTGCTAG: 9.5 z-score
TTAGGACTGCTTCTCCTTAAGTGCTAG: -0.322 z-score
TTAGGTCTCGACTTTCGGTTAGTGCTA: 9.79 z-score
TCAAATCTCCCATTATAACTGTGCTAG: 0.491 z-score
TACGGACTGGGTCTCGGGACGTGCTAG: -0.599 z-score
AACCATTTTGGTTTTCCTTAGTGCTAG: 1.08 z-score
TTCGGTTTCGGGTATCGGTTAGTGCTA: 9.9 z-score
TTCCTTGCTATGTTGCTCAGGTGCTAG: 0.375 z-score
ACATCCAAATCCACCATTCAGTGCTAG: 0.147 z-score
TCATACTTCCCACTGGTACTGTGCTAG: 0.0955 z-score
GATGATCTCAGTATCGAGACGTGCTAG: 1.85 z-score
TTAGGTATCGACACTGGGTTTGTGCTA: 2.25 z-score
GACGGTTTCGACACGGGGGACGTGCTA: 5.41 z-score

Series 3
Target: Histone acetyltransferase KAT6A, winged helix 1, GST fusion (KAT6A, Homo sapiens, UniProt Q92794, residues 1-85)
Technique: protein binding microarray
Molecule type: double-stranded DNA, one strand shown
Sample: in vitro
Tested at: not given
Setting: 8-mer, flanks averaged, mean of 2 arrays, mostly near background
Reference: not given
Reading: higher = stronger binding
Quantity: E-score
Construct (chain): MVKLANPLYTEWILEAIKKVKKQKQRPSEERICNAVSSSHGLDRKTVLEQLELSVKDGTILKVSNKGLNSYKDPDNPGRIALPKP
GGTTATAA: 0.0942
CAATGCAG: -0.0504
GCGTAGAC: 0.256
GCATGCAC: 0.107
ACACGGGT: 0.174
ATTACTCG: 0.058
AGCTAGCG: 0.242
CGCCAAAG: 0.0697
CGTGTCAG: -0.00145
CCACGAGA: -0.251
AAGCACTA: -0.259
GCAAGCTA: -0.0727
GGACTTGA: -0.124
AATATCCC: 0.0253
AACTATCT: -0.175
CATCAGGA: -0.246
CTTGAAAA: -0.184
GCATCAGA: -0.178
AGCGCTAC: 0.336
CTGATAAC: -0.0791
ACTGACAG: -0.0575
CAGGAAGC: -0.174
AACTATTA: -0.0529
AATCGCGT: 0.116
AGGTTAAA: -0.118

Series 4
Target: Ras GTPase-activating protein-binding protein 1, C-terminal RGG region (G3BP1, Homo sapiens, UniProt Q13283)
Chain of UniProt Q13283 (whole entry, looked up): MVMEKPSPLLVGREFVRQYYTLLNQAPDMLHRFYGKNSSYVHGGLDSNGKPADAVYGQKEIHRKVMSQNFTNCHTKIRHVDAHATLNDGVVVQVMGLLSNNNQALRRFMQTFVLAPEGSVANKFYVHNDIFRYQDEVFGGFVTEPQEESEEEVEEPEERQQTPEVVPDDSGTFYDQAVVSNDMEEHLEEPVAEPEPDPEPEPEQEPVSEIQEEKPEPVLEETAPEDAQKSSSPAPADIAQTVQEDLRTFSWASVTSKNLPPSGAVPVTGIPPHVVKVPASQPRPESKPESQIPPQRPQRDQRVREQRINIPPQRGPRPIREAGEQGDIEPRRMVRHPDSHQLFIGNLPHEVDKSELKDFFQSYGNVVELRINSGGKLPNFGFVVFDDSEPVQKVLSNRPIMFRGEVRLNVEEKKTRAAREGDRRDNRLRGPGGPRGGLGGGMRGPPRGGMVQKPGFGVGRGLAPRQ
Technique: RNA Bind-n-Seq
Molecule type: RNA
Sample: in vitro
Tested at: 1 µM
Setting: whole 134-nt RNA, ends assumed
With: 150 mM KCl
Reference: input library
Reading: higher = stronger binding
Quantity: log2 enrichment
All sequences stand within: GGGAGUUCUACAGUCCGACGAUC … UGGAAUUCUCGGGUGUCAAGG
UCAAGUCCUGUGCUACACAUCGUAUGUACCGAAUCGGCCCGGGGCCCGGCCCGGGAAAGUAUUAUGUUACGCCGUUCGGAUCUGCACUUC: -1.5
UGGCCCUGGUGGCAUGCGGGGAGGAAGAGGUGGCCUCAUGGAUCGUGAUGGUCCCGGUGGAAUGUUCAGAGGUGGCCGUGGUGGAGACAG: 2.25
GUCCUGUGCUACACAUCGUAUGUACCGAAUCAAACCCAAACCCCCAAACCCCCCCAAAAAAGUAUUAUGUUACGCCGUUCGGAUCUGCAC: -0.965
UAACUUUAGAGGAGGAUCUGAUGGAUAGGGCAGUGGACGUGGAUUUGGGGAUGGCUAUAAUGGGUAUGGAGGAGGACCUGGAGGUGGCAA: 0.56
UGGGAGGUGGAUUUUGUUUAUUUUUUUAGCUCAUUUCCAGGGGUGGGAAUUUUUUUUUAAUAUGUGUCAUGAAUAAAGUUGCUUUUGAAA: 3.57
GCAGGAAGUAAAAACAAAUGGAAAUGCUUCGGAUAGUGGCAGGGGUGGGGAAAGCUAAGGAAAGGGUGGGAUGGGAGUGGGUAAAGAGUU: 1.58
UGGCCCUCAAGCACUGCACAGAGGCCCUUCUUUCUCUUGGCCAGUACUCCAUGGCAGACUUCACAGGGCCUUGUCCAUUGGAAAUAGAAC: -1.39
UUGUGAUUAAGAUUUGUUCUUUUUCUCCCCUCUCUAUAGGAAGAUGAUCCCUAUGAUCUUGAAGAUGUUUCUGCACAGAAAUGAGGGAAA: -0.0469
AGUCCUGUGCUACACAUCGUAUGUACCGAAUCGGGCCCCCGGGCCCCCGGCCCCCGGAAAGUAUUAUGUUACGCCGUUCGGAUCUGCACU: -1.52
UGUGGACGACAAUGAGGAGACCAUCAAAAAGCGGCUGGAGACCUAUUACAAGGCCACAGAACCUGUCAUCGCCUUCUAUGAGAAACGUGG: -1.16
UGGCCCUGGUGGCAUGCGGGGAGGAAGAGGUGGCCUCAUGGAUCGUGGUGGUCCCGGUGGAAUGUUCAGAGGUGGCCGUGGUGGUGACAG: 3.28
CAAGUCCUGUGCUACACAUCGUAUGUACCGAAUCGGGUUUGGGUUUGGUUUGGGGAAAGUAUUAUGUUACGCCGUUCGGAUCUGCACUUC: 0.0318
ACCAUACUUGACAACUUCUGAUUGAAUGCCCAUGCCCAAUGCCAACAUCCACGAACGCCAAUGACCAAUGCAGUACAAUGCCAGUGUUUC: -0.691
AAGUCCUGUGCUACACAUCGUAUGUACCGAAUCGGGCCCCGGCCCCGGCCCCGGGGAAAGUAUUAUGUUACGCCGUUCGGAUCUGCACUU: -2.24

Some of these lines once more (series 4):
UUGUGAUUAAGAUUUGUUCUUUUUCUCCCCUCUCUAUAGGAAGAUGAUCCCUAUGAUCUUGAAGAUGUUUCUGCACAGAAAUGAGGGAAA: -0.0469
CAAGUCCUGUGCUACACAUCGUAUGUACCGAAUCGGGUUUGGGUUUGGUUUGGGGAAAGUAUUAUGUUACGCCGUUCGGAUCUGCACUUC: 0.0318
UGGCCCUCAAGCACUGCACAGAGGCCCUUCUUUCUCUUGGCCAGUACUCCAUGGCAGACUUCACAGGGCCUUGUCCAUUGGAAAUAGAAC: -1.39
AAGUCCUGUGCUACACAUCGUAUGUACCGAAUCGGGCCCCGGCCCCGGCCCCGGGGAAAGUAUUAUGUUACGCCGUUCGGAUCUGCACUU: -2.24
UAACUUUAGAGGAGGAUCUGAUGGAUAGGGCAGUGGACGUGGAUUUGGGGAUGGCUAUAAUGGGUAUGGAGGAGGACCUGGAGGUGGCAA: 0.56
GCAGGAAGUAAAAACAAAUGGAAAUGCUUCGGAUAGUGGCAGGGGUGGGGAAAGCUAAGGAAAGGGUGGGAUGGGAGUGGGUAAAGAGUU: 1.58
UGGCCCUGGUGGCAUGCGGGGAGGAAGAGGUGGCCUCAUGGAUCGUGGUGGUCCCGGUGGAAUGUUCAGAGGUGGCCGUGGUGGUGACAG: 3.28
AGUCCUGUGCUACACAUCGUAUGUACCGAAUCGGGCCCCCGGGCCCCCGGCCCCCGGAAAGUAUUAUGUUACGCCGUUCGGAUCUGCACU: -1.52
GUCCUGUGCUACACAUCGUAUGUACCGAAUCAAACCCAAACCCCCAAACCCCCCCAAAAAAGUAUUAUGUUACGCCGUUCGGAUCUGCAC: -0.965
UGGGAGGUGGAUUUUGUUUAUUUUUUUAGCUCAUUUCCAGGGGUGGGAAUUUUUUUUUAAUAUGUGUCAUGAAUAAAGUUGCUUUUGAAA: 3.57
UGGCCCUGGUGGCAUGCGGGGAGGAAGAGGUGGCCUCAUGGAUCGUGAUGGUCCCGGUGGAAUGUUCAGAGGUGGCCGUGGUGGAGACAG: 2.25
